Assay results gathered from unrelated publications.
Protocols differ between the studies behind these lines.
Target: Serine/threonine-protein kinase WNK3 (WNK3, Homo sapiens, UniProt Q9BYP7)

SMILES	test	setting	how to read	endpoint	result
CN1CCN(Cc2ccc(-c3ccc(CO[C@H]4CCC[C@@H]4NC(=O)c4cc(-c5cnn(C)c5)cnc4N)cc3)cc2)CC1	enzyme activity, inhibitor	0.1 µM	–	inhibition	-18%
COCC12C(=O)NC3C4(C(OC)CC1O)C1CC5(O)C(OC)C(O)C(OC(C)=O)(C1C5OC(=O)c1ccccc1)C3(O)C(OC)C24 (stereo not shown)	kinase activity, inhibitor, ProQinase kinase profiling	25 µM	baseline: control	remaining activity	100%
NC(=O)[C@@H](O)C[C@H]1CCc2sc3ncnc(O[C@H]4CC[C@H](N5CCOCC5)CC4)c3c21	enzyme activity, inhibitor	10 µM	–	inhibition	8%
CCN1CCN(Cc2ccc(NC(=O)c3ccc(C)c(NC(=O)c4cncc(-c5cnn(C)c5)c4)c3)cc2C(F)(F)F)CC1	binding, competition with immobilised ligand	1 µM	–	remaining binding	100%
O=C(Nc1ccc(Oc2ncnc3[nH]cc(-c4ccccc4)c23)c(F)c1)c1c2n(n(-c3cc(F)ccc3F)c1=O)CCCC2	enzyme activity, inhibitor	0.5 µM	–	inhibition	22%
O=C=[N][Ru-4]123([n]4c5ccc(O)cc5c5c6c(c7cc(F)c[n+]1c7c54)C(=O)NC6=O)[S+]1CC[S+]2CC[S+]3CC1 (stereo not shown)	enzyme activity	100 nM, human enzyme, with: 10 µM ATP	baseline: untreated	remaining activity	99%
Cc1nc2c(F)cc(-c3nc(Nc4ccc(CNC(=O)CCCCCCC(=O)NO)cc4)ncc3F)cc2n1C(C)C	enzyme activity, inhibitor	1 µM	–	inhibition	48%
CNC(=O)C1CCN(c2cc(C)c(F)cc2NC(=O)c2ccc(-c3cc(O)ccc3C)c(C)c2)CC1	binding, competition with immobilised ligand	1 µM	–	remaining binding	45%
COc1c(Cl)cccc1Nc1c(-c2ccncc2C#C[C@@]2(C)CCCN2C(=O)/C=C/CN(C)C)[nH]c2c1C(=O)NCC2	binding, competition with immobilised ligand	3 µM	–	remaining binding	100%
CNC(=O)C[C@H](Cc1ccc(C#N)cc1)NC(=O)c1cc(-c2ccc(CN[C@H](C)c3ccc(C)cc3)o2)ccc1Cl	enzyme activity, inhibitor	1 µM	–	activity vs control	109%
COc1cc(Nc2nc(C)cc(-c3cnn4nc(OC)ccc34)n2)cc(C(F)(F)F)c1	binding, competition with immobilised ligand	1 µM	–	remaining binding	81%
CC(C)=CC1OC(C)(C)C2C=C3C(=O)C(Cl)=CC(O)C3C3C(O)C4OC4C(=O)C132 (stereo not shown)	cell-free assay, competition with immobilised ligand	10 µM	–	remaining binding	74%
C=CC(=O)N1CCc2ccc(-n3c(=O)ccc4cnc5ccc(-c6cnn(C)c6)cc5c43)cc21	KINOMEscan	1 µM	baseline: DMSO control	remaining binding	100%

A few entries again:
SMILES	test	setting	how to read	endpoint	result
Cc1nc2c(F)cc(-c3nc(Nc4ccc(CNC(=O)CCCCCCC(=O)NO)cc4)ncc3F)cc2n1C(C)C	enzyme activity, inhibitor	1 µM	–	inhibition	48%
